Measurements collected from several papers.
Each numbered part is a random draw from the data of one study; scales do not carry over between parts. Positions count from the first letter of the parent shown.

Series 1
Target: Protein C-ets-1 (ETS1, Homo sapiens, UniProt P14921, residues 1-441, full length assumed)
Technique: protein-binding microarray
Molecule type: double-stranded DNA, one strand shown
Matrix: in vitro
Concentration: not given
Notes: k-mer, scored over probes, only values ≥0.25
Direction: higher = stronger binding
Target sequence (chain): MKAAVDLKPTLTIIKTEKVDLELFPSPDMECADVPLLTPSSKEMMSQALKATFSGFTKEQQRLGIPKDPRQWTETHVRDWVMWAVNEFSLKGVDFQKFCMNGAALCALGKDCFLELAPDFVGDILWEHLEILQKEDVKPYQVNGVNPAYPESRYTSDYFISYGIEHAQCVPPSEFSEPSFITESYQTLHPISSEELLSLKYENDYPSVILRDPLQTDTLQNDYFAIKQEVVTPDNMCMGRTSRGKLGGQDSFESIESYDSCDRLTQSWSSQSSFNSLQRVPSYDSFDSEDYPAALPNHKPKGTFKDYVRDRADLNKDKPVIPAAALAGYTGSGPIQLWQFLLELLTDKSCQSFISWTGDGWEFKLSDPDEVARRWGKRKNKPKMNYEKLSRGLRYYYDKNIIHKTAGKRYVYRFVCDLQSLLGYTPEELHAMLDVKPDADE
| Strand | E-score |
| --- | --- |
| CCGGAGGA | 0.325 |
| ATCCCGTC | 0.273 |
| CGGAACAA | 0.356 |
| ACGACATC | 0.264 |
| ACATATCC | 0.301 |
| GGTGGGAA | 0.279 |
| CGTCGGAA | 0.284 |
| GGAATTCC | 0.343 |
| CACTTCCA | 0.416 |
| ACCGCCGG | 0.266 |
| GCGTTTCC | 0.424 |
| GCGCATCC | 0.386 |
| ACCGGACA | 0.452 |
| CCGGAACC | 0.457 |
| CGGAAACG | 0.477 |
| ACAGGAAT | 0.287 |

Series 2
Target: Histone acetyltransferase KAT6A, both winged helices, GST fusion (KAT6A, Homo sapiens, UniProt Q92794, residues 1-181)
Technique: protein binding microarray
Molecule type: double-stranded DNA, one strand shown
Matrix: in vitro
Concentration: not given
Notes: 8-mer, flanks averaged, mean of 2 arrays, mostly near background
Baseline: not given
Direction: higher = stronger binding
Target sequence (chain): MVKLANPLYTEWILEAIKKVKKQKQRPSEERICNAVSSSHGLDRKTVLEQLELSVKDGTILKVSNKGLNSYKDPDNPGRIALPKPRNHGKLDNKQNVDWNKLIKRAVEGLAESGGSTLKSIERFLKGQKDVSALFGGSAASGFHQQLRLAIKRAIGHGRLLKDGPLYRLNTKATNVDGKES
| Strand | E-score |
| --- | --- |
| CCTACTAG | -0.229 |
| CCATGCTA | -0.118 |
| CACCATAA | -0.0312 |
| AAAGAGCG | 0.188 |
| AAGGGGCC | -0.166 |
| ATCTTGTG | -0.176 |
| CCGTAGAC | 0.177 |
| GCAACATA | -0.0482 |
| ATTGAAGG | -0.095 |
| CAGTCAAG | -0.203 |
| AGCAGCAA | -0.0624 |
| AGTAACAA | -0.0617 |
| AAACCATT | -0.159 |
| ACCCGCTC | 0.273 |
| TCATACCA | -0.0865 |
| CGCATAAG | 0.14 |
| CTTTCTCA | 0.0072 |
| CAGGCATC | -0.252 |
| ACGTACGT | -0.141 |
| CGTACATA | 0.078 |
| CTCCTAGC | -0.0972 |
| ACACAATC | -0.0117 |
| CGGGAAAG | 0.164 |
| CGCACACC | 0.176 |

Series 3
Target: CCNA1, cyclin fold, Cln2 fusion (human)
Technique: yeast growth competition, sequencing
Matrix: yeast
Notes: weak parent motif
Baseline: not given
Direction: higher = stronger binding
Starting sequence: CDC25A docking peptide (human); PPHRRRLLFACSP; partner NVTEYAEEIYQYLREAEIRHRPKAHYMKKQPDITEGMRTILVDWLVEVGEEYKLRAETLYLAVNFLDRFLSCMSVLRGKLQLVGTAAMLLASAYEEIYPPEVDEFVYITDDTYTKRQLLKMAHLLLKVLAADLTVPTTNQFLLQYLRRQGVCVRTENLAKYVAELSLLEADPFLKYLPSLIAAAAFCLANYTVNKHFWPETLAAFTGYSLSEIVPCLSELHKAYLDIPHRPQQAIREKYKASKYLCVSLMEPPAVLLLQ
| Substitution | normalised enrichment score |
| --- | --- |
| PTHRRRLLFACSP [P2T] | 0.629 |
| PPHRRRLLFAQSP [C11Q] | 0.919 |
| PPHRRSLLFACSP [R6S] | 0.312 |
| PPLRRRLLFACSP [H3L] | 0.259 |
| PPHRRFLLFACSP [R6F] | -0.396 |
| PPHRRRLLFACHP [S12H] | 0.207 |
| PPHRRRLCFACSP [L8C] | 0.167 |
| PPWRRRLLFACSP [H3W] | 0.199 |
| PPHRRRLLFGCSP [A10G] | 0.0925 |
| PPHRRCLLFACSP [R6C] | -0.00194 |
| PPHRRGLLFACSP [R6G] | 0.144 |
| PPHRRNLLFACSP [R6N] | 0.375 |
| PPHRARLLFACSP [R5A] | 0.438 |
| PDHRRRLLFACSP [P2D] | 0.154 |
| PPHRRRFLFACSP [L7F] | 0.235 |
| PPHRMRLLFACSP [R5M] | 0.241 |
| PPHRRRLLEACSP [F9E] | 0.424 |
| PPHMRRLLFACSP [R4M] | 0.123 |
| PPHRLRLLFACSP [R5L] | 0.364 |
| PPHRRRLPFACSP [L8P] | 0.173 |
| PPHDRRLLFACSP [R4D] | 0.328 |
| EPHRRRLLFACSP [P1E] | 0.131 |
| PPHRRRHLFACSP [L7H] | 0.0228 |
| PPHRRRLEFACSP [L8E] | 0.383 |
| PPHRVRLLFACSP [R5V] | 0.448 |

Series 4
Target: Sal-like protein 4, full length isoform B (SALL4, Homo sapiens, UniProt Q9UJQ4-2, residues 1-616)
Technique: universal PBM
Molecule type: double-stranded DNA, one strand shown
Matrix: in vitro
Concentration: not given
Notes: 8-mer, flanks averaged, mean of replicates
Direction: higher = stronger binding
Target sequence (chain): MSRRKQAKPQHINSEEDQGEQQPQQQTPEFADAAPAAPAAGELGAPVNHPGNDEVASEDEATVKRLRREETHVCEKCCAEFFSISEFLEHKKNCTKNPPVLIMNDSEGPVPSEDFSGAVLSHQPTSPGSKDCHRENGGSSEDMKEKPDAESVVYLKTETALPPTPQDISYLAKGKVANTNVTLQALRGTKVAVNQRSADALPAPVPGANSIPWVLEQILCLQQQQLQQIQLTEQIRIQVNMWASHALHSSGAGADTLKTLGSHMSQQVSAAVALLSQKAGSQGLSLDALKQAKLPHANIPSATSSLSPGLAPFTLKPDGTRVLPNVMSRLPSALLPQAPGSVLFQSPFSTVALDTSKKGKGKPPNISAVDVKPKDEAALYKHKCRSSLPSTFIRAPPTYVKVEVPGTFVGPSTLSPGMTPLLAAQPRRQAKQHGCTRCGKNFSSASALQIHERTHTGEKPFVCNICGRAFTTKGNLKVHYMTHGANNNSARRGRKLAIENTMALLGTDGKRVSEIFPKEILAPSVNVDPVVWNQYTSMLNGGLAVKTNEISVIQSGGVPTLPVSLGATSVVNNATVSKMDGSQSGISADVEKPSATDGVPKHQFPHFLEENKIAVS
| Strand | E-score |
| --- | --- |
| ACCGAAAG | 0.00162 |
| ATAGCGTG | 0.0634 |
| GCCTCACA | -0.0223 |
| AGACCGAG | -0.239 |
| TCGAGTAA | 0.0895 |
| GCTGCTTA | -0.0504 |
| CCTCTTGC | -0.224 |
| ACTTGCAA | 0.228 |
| CGACGAGC | -0.232 |
| ACCAAAAA | 0.305 |
| CCTGCAAA | -0.00557 |
| CAATGAAC | 0.0118 |
| ATGTCCGC | -0.0484 |
| CTGCCTCC | -0.196 |
| ACTATTGG | 0.0584 |
| GGCTGAAA | -0.0582 |
| AAACCAGC | -0.0647 |
| GTGCCAGA | -0.168 |
| ACTGTACT | -0.0069 |
| AAATCTCT | 0.17 |
| GACTGTAA | 0.0456 |
| GACTTGTA | 0.173 |
